# Published values collected from several papers.
# Every numbered part comes from another study and shows a few of its results, in no order. Substitutions count along the parent as printed.
# Chain of UniProt Q13464 (whole entry, looked up): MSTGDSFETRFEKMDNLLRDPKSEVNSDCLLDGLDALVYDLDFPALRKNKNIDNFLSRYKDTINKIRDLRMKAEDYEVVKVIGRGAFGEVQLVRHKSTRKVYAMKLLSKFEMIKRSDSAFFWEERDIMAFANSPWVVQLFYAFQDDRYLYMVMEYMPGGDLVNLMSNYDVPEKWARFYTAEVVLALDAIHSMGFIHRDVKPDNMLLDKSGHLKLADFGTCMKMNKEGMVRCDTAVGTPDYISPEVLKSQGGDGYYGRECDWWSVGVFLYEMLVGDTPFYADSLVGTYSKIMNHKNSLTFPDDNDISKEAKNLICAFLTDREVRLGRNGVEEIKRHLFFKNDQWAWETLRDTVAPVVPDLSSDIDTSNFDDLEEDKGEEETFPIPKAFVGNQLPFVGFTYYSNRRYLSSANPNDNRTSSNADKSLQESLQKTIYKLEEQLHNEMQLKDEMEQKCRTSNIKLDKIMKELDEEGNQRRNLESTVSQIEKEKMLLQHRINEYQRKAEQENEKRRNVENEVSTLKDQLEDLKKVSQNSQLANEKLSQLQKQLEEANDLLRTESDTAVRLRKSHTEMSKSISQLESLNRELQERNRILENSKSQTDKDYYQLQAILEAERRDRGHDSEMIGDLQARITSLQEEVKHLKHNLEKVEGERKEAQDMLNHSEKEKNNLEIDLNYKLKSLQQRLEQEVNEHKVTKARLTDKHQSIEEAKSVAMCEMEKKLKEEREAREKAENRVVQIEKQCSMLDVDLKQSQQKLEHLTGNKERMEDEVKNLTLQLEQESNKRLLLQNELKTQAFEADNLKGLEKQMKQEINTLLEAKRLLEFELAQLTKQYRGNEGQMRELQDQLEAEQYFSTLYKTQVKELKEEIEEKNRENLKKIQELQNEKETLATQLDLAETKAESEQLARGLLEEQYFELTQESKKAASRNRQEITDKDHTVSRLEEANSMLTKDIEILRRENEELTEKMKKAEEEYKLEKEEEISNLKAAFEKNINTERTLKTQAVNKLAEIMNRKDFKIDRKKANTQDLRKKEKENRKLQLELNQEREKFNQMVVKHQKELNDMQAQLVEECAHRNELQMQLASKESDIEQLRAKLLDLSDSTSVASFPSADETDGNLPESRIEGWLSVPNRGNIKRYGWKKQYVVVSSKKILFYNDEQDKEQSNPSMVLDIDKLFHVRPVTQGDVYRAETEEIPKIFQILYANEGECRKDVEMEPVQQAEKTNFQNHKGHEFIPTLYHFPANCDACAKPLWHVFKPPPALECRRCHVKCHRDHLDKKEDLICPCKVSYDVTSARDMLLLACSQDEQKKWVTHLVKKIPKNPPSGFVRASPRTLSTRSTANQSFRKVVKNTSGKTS
# Chain of UniProt P42681 (whole entry, looked up): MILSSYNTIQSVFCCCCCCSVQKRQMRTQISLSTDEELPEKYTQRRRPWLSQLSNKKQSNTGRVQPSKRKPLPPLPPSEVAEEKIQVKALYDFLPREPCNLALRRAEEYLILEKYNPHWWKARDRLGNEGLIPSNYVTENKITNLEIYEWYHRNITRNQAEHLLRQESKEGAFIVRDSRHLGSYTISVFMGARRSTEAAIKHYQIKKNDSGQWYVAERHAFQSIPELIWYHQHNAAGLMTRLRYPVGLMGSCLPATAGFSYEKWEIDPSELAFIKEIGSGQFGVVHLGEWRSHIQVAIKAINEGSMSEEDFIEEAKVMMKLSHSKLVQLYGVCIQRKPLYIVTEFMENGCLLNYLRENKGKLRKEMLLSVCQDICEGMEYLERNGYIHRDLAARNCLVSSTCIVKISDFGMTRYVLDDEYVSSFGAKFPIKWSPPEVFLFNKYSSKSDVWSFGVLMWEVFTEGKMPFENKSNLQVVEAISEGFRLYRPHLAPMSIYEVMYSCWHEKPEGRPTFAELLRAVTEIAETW
# Chain of UniProt Q16539 (whole entry, looked up): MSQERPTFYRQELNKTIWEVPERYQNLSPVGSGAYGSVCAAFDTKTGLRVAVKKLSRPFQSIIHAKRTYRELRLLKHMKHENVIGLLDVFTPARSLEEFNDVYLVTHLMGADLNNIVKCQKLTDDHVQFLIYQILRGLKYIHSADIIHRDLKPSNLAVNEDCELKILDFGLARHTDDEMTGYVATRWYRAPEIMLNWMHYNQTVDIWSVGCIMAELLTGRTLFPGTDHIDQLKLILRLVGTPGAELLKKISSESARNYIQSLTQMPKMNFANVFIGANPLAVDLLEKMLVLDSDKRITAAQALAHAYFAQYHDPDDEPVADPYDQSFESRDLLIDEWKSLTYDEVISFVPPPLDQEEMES
# Chain of UniProt P50750 (whole entry, looked up): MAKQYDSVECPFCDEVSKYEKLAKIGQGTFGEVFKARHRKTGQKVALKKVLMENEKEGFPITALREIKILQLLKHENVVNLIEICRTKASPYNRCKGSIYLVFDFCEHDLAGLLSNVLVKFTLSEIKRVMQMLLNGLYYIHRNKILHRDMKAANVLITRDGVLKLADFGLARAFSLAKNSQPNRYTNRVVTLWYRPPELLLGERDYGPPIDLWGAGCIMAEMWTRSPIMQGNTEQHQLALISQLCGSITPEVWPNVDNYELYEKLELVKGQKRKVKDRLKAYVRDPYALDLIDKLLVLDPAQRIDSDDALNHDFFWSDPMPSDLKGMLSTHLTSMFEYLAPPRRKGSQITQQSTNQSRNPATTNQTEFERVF
# Chain of UniProt P51956 (whole entry, looked up): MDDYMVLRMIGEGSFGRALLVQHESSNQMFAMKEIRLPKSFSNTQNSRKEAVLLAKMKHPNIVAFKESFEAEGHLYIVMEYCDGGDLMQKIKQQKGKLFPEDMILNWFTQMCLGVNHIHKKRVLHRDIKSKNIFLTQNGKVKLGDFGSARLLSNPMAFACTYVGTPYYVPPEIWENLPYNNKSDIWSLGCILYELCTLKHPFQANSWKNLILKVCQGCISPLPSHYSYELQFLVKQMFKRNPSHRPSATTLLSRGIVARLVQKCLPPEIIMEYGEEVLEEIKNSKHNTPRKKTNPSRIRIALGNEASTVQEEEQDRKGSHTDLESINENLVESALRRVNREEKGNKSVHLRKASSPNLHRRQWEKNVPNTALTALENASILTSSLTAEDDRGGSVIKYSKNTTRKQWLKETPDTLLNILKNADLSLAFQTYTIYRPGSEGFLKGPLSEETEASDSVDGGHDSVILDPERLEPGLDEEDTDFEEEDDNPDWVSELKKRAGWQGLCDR
# Chain of UniProt Q9HAZ1 (whole entry, looked up): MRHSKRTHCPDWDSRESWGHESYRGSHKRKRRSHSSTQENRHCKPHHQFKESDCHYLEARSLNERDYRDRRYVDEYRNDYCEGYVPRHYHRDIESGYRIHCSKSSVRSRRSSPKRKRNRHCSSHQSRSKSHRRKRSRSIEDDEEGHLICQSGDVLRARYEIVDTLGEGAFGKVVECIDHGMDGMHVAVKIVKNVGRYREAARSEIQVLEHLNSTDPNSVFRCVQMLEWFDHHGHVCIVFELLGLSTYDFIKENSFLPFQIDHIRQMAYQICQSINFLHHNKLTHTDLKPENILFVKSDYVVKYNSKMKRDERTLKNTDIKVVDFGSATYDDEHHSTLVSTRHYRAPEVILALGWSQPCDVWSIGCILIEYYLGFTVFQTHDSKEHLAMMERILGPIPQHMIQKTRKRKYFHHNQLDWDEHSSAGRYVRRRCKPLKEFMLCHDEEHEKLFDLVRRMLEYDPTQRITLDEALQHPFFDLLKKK
# Chain of UniProt Q7KZI7 (whole entry, looked up): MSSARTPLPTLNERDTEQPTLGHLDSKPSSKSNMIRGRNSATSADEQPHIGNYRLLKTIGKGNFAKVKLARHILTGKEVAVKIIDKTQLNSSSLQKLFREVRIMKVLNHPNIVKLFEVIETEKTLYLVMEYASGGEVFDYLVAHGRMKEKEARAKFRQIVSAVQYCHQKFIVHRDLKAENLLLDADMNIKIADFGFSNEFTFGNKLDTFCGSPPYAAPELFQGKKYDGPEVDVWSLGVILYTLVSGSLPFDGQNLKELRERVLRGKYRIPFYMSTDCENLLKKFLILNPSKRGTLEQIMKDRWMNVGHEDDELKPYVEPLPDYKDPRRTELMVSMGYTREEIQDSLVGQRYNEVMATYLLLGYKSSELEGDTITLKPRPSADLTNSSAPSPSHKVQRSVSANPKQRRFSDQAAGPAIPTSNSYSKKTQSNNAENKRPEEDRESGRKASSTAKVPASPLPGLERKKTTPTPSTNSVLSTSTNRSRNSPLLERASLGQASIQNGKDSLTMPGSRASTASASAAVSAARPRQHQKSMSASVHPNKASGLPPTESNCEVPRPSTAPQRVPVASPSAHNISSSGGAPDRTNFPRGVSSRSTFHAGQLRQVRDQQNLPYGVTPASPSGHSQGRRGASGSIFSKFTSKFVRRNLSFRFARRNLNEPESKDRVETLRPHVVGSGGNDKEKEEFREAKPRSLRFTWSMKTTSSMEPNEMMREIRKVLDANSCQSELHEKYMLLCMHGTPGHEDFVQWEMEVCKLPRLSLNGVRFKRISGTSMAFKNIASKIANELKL

# Series 1
# SMILES: O=C1Cc2c([nH]c3ccc([N+](=O)[O-])cc23)-c2ccccc2N1
# Effect on: enzyme activity
# Mode: inhibitor
# Concentration: 0.5 µM
# Relative to: control
target,remaining activity [%]
"NEK3 (Homo sapiens, UniProt P51956)",108
"CLK4 (Homo sapiens, UniProt Q9HAZ1)",86.4
"TXK (Homo sapiens, UniProt P42681)",87.3
"PLK3 (Homo sapiens, UniProt Q9H4B4)",98.8
"DDR2 (Homo sapiens, UniProt Q16832)",103
"MAPK14 (Homo sapiens, UniProt Q16539)",92.1
"MAPK11 (Homo sapiens, UniProt Q15759)",102
"MET (Homo sapiens, UniProt P08581)",117
"MAP2K1 (Homo sapiens, UniProt Q02750)",92.6
"KDR (Homo sapiens, UniProt P35968)",87.8
"MARK2 (Homo sapiens, UniProt Q7KZI7)",52.4
"Cyclin-dependent kinase 9, with cyclin K (CDK9, Homo sapiens, UniProt P50750)",24.2
"ROCK1 (Homo sapiens, UniProt Q13464)",91.2

# Series 2
# SMILES: O=C1CCc2cc(Nc3cc(OC4CCOCC4)c([N+](=O)[O-])cc3Cl)ccc2N1
# Effect on: cell-free assay
# Technique: competition with immobilised ligand
# Concentration: 1 µM
target,remaining binding
"NEK10 (Homo sapiens, UniProt Q6ZWH5)",100%
"SBK3 (Homo sapiens, UniProt P0C264)",100%
"BMX (Homo sapiens, UniProt P51813)",69%
"ROCK1 (Homo sapiens, UniProt Q13464)",80%
"Tyrosine-protein kinase ABL1, non-phosphorylated (ABL1, Homo sapiens, UniProt P00519, H396P)",89%

# Series 3
# Target: ABI1, truncated, D143A, DHFR fusion (Arabidopsis thaliana)
# Technique: DHFR PCA, deep sequencing
# Matrix: yeast
# Notes: methotrexate growth selection, single substitutions
# With: (+)-ABA 0 µM
# Relative to: wild-type fitted maximum
# Reading: higher = stronger binding
# Starting sequence: PYL1, truncated, DHFR fusion (Arabidopsis thaliana); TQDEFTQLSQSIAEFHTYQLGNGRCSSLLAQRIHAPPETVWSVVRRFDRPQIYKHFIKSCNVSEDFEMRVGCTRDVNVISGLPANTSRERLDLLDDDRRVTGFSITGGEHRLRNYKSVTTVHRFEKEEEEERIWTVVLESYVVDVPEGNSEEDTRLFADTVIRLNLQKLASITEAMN
Variant,relative binding score [%]
G108Y,-1.28
A13E,36
R111V,9.14
S80D,9.83
G23W,-0.687
R45P,0.234
E129P,44.2
S87L,33.4

# Other studies, line by line
# FOXP2 N-truncated, polyQ removed: Forkhead box protein P2, N-truncated, polyQ removed (FOXP2, Homo sapiens, UniProt O15409, residues 214-715)
# Chain of UniProt O15409 (214-715, unmodified, looked up): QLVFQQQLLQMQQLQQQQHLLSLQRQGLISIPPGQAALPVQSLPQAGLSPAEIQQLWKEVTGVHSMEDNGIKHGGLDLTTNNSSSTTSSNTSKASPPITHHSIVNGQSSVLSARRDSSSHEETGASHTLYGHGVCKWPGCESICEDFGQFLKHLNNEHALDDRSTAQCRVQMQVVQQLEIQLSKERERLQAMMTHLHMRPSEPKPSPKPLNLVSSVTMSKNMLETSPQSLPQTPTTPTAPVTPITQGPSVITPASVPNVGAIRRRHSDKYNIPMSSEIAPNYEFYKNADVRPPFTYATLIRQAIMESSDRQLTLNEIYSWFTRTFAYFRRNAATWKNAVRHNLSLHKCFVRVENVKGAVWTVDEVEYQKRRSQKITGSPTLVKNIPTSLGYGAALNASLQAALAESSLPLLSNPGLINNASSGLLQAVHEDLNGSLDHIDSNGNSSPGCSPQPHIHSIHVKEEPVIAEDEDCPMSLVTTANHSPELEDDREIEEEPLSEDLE
Substance,target or system,test,system,setting,scale,quantity,value
"DNMT1 (Homo sapiens, UniProt P26358)","EMC1 (Homo sapiens, UniProt Q8N766)",cross-linking MS,cell fractions,with: DMTMM,,cross-linked residues,K347 to E893
CGCCTGTTACGGCATCAGGGCTTTGGTTTGGGATGGCTGCTTGTCTACCAATTGTTCCGGCGGTATGAC,"FOXP2 N-truncated, polyQ removed",MITOMI,"double-stranded DNA, one strand shown, in vitro","not given, 69-bp whole dsDNA, apparent Ka, titration fit","relative to: unmutated reference site, higher = stronger binding",relative association constant,0.0293 fold
"CYC1 (Homo sapiens, UniProt P08574)","UQCRC1 (Homo sapiens, UniProt P31930)",cross-linking MS,cell fractions,with: DSSO,,cross-linked residues,K325 to S205
CGCCTGTTACGGCATCAGGGCTTTGGTTTGGGATGGCTGCTTGTTTACCAATTGTTCCGGCGGTATGAC,"FOXP2 N-truncated, polyQ removed",MITOMI,"double-stranded DNA, one strand shown, in vitro","not given, 69-bp whole dsDNA, apparent Ka, titration fit","relative to: unmutated reference site, higher = stronger binding",relative association constant,1 fold
"GTF2H1 (Homo sapiens, UniProt P32780)","XPC (Homo sapiens, UniProt Q01831)",cross-linking MS,cell fractions,with: DMTMM,,cross-linked residues,K102 to E149
"SAP18 (Homo sapiens, UniProt O00422)","PNN (Homo sapiens, UniProt Q9H307)",cross-linking MS,cell fractions,with: DSSO,,cross-linked residues,K74 to K109

# Repeated from above (series 1):
target,remaining activity [%]
"NEK3 (Homo sapiens, UniProt P51956)",108
"CLK4 (Homo sapiens, UniProt Q9HAZ1)",86.4
"TXK (Homo sapiens, UniProt P42681)",87.3
"PLK3 (Homo sapiens, UniProt Q9H4B4)",98.8
